Measured values from different studies.
Protocols differ between the studies behind these lines. Numbers after ± are the reported error.
Technique: steady-state kinetics
B1: enzyme (Methylibium petroleiphilum, UniProt A2SL37); chain PIIQMNLLEGRTVEQKRNAVAAITEAVVRTLDVRPDQVRILINELGVEHFSVAGQTAAMRQAAAANAKDL
B2: enzyme S252E (Schizosaccharomyces pombe, UniProt P78804); chain MSTPYEPEFQQAYKEIVGSIESSKLFEVHPELKRVLPIISIPERVLEFRVTWEDDKGNCRVNTGYRVQFNSALGPYKGGLRFHPSVNLSILKFLGFEQIFKNALTGLPMGGGKGGSDFDPKGKSDNEIRRFSQAFMRQLFRYIGPQTDVPAGDIGVTGFVVMHMFGEYKRLRNEYSGVVTGKHMLTGGSNIRPEATGYGVVYYVKHMIEHRTKGAETLKGKRVAISGSGNVAQYAALKCIQEGAIVKSISDEKGVLIAKTAEGLVPEEIHEIMALKEKRASIADSASLCKKHHYIAGARPWTNVGEIDIALPCATQNEVSGEEAAALIKQGCRYVAEGSNMGSSAEAVEVFEKSRASGEGCWLAPGKAANAGGVAVSGLEMAQNAQFSTWTHAEVDAKLAGIMQNIFEQSTDVASKYCDSGSNNIPSLVDGANIAGFLKVATAMQAVGDWW
B3: enzyme Y27L (Thermoplasma volcanium, UniProt Q978S7); chain MAFHGLVKYSDITVEGLPKIQYHGFIGNNRTAMLVAMNGYIDWGCLPNFNSNAVFSSILDKNKGGYFAIFPSDTTDVYVDQYYKEMTNVLVTEFVKNGKIILRLTDFMPDSEYGKISFPEVHRFVESFSEPIDITIDFKPTFNYGQDKPIIEKDQHGFIFTTDKESIGISSEFPLRKNSDRIFGNVKMEPRSSSWIIALYGIHHLFRTTDYKSYLRLQETTDYWRKWASSSSYAGAYHSMVMRSALALKVLFYEPTGLMVAAPTASLPEAIGGERNWDYRFTWIRDTAYVIEALSSIGYKYEATEFLYDMMDMITRDNRIRTIYSIDDSNDLEERIIDYEGYRGSRPVRIGNKAVDQLQIDQYGSIVRAIHSMAKAGGIVNSYLWDFVEQVMAKIEYLWKYPDSSIWEFRTEPKQYVYSKVMSWAAFDSAISMAKDLGLSAPIKQWKSIQDEIKKEVLEKGFDTDTNSFVQYYGSKNIDAALLRLPILGFIPANDEKFLGTLSRIEKELMVDGYLFKRYREDDGLKGDEGSFLMLTFWYIEDLILMKRLKKAREVLESVLEKANHLGLYSEEIDEKSGDFLGNFPQALSHLGVIRVAPKLEEALLKRTSKINS
B4: enzyme H130Y (Salinispora arenicola, UniProt A8M783); chain MASTPWISFTTDYGLADGFVAACHGVLARLAPTARVIDVTHLVPPGDVRRGAAVLAQTVPYLPAAVHVAVVDPGVGTARRAIALTAGNGLLVGPDNGLLLDAATALGGVDAAVELTNPDWLGARMSATFYGRDVFAPVAARLALGAPLADAGPAVEPGALVRLPTPLVQPETDGFTAEVLTVDHFGNVQLAATGALLESLPRSLRVAHRPAVHARTFDDAPPGGLLVHVDSAGLVAVAVNGGRAADLLAVTPGDQLRVTAG
B5: enzyme C33S (UniProt A0A0P0CH59); chain MRIALFSDIHANLPALEAVLANMETQQLDAIYSLGDLVGYAPWPNEVVAEIRKRRIPTIAGNYDEGVGLWSPNCGCAYKTDTEKDLGQQSIDFTNNVVTEETRKYLRMLPRQLRLTFMDGSKEENKIELLLVHGSPRKINEYLFEDRPEKSFLKMMEEANADLLFFGHTHKPYHRAMPYEHEGQTRYRHAINIGSVGKPKDGDPRTGYVVVELTPESSLTQKDSIKVEFIRVPYDVETAAQAVEASPLPNEFAQMLRTA
B6: LYS1 C205S/K77M (Saccharomyces cerevisiae, UniProt P38998); chain MAAVTLHLRAETKPLEARAALTPTTVKKLIAKGFKIYVEDSPQSTFNINEYRQAGAIIVPAGSWKTAPRDRIIIGLMEMPETDTFPLVHEHIQFAHCYKDQAGWQNVLMRFIKGHGTLYDLEFLENDQGRRVAAFGFYAGFAGAALGVRDWAFKQTHSDDEDLPAVSPYPNEKALVKDVTKDYKEALATGARKPTVLIIGALGRSGSGAIDLLHKVGIPDANILKWDIKETSRGGPFDEIPQADIFINCIYLSKPIAPFTNMEKLNNPNRRLRTVVDVSADTTNPHNPIPIYTVATVFNKPTVLVPTTAGPKLSVISIDHLPSLLPREASEFFSHDLLPSLELLPQRKTAPVWVRAKKLFDRHCARVKRSSRL
B7: enzyme (Saccharina japonica, UniProt A0A097IUE3); chain QQLGKTASMATVSSLGIDKATGIKNPTTVHRNLPYPEVFEHEVKHKEGEVTSNGTFCVSTGQFTGRSPKDKYFVKQAPSDKNLDWGKVNVGVAPDVFKNIYKKAVKHYNDNVEKMYVFDGYCGTSPKSRKNVRIITELAWQHHFAKNMFIRPESEAEVADFAPDFTIVNACKVVNDDYKELGLNSEVAVVFNVEERKAVITGTWYGGEMKKGIFSMMNYWLPLDGVMAMHCSANKGKNGDTALFFGLSGTGKTTLSADPDRYLIGDDEHGWDDDGIFNFEGGCYAKTINLSHKNEPEIYDAIKKDALLENVIIKGNGDPDYTDVSKTENTRVSYPIYHIDNYEPSGMGGHPNSIVFLTCDAFGVLPPVSRLSAGQAMYHFLSGYTAKVAGTERGVTEPTPNFSACFGAAFLTLHPTAYADLLQKKLDTHGTQCFLINTGWTGGGYGVGKRMSIKATRACVNSVLDGSINKTKFTADPVFGFEVPADLPGVPSKVLNPRDAWSDKESYDTTRTKLAGMFKDNFTKFVKPGVTNYTAYGPK
B8: acsA (Pseudomonas chlororaphis, UniProt Q5CD72); chain MRDYEHVVESFDYLQSATQDLHGELTALNACVECCDRHAHGEAVALYCEAQDGHAERYRFRDLQRQAARFGNFLREQGVKPGDRVAGLMPRTVELLIAILGTWRIGAVYQPLFTAFGPKAIEQRLNCSNARWIVTDPHNRPKLDDVTDCPSIVVTGGAPQNPADHHFWSALNRQADDCAPVLLDASAPFLLMCTSGTTGPAKPLEVPLSAILAFKGYMRDAIDLRADDRFWNLADPGWAYGLYYAVTGPLACGYATLFYDGPFTVESTRHIIAKYAINNLAGSPTAYRFLIAAGAEFADAVRGRLRAVSSAGEPLNPQVVRWFAEQLGVVIHDHYGQTEIGMVLCNHHGLRHPVREGSAGYAVPGYRIVVLDKAHRELPAGQPGVLAVDRERSPLCWFDGYLGMPTQAFAGRYYLSGDIVELNDDGSISFVGRNDDLITTSGYRVGPFDVESALIEHPAVVEAAVIGKPDPQRTELIKAFVVLNTPYLPSPELAEELRLHVRQRLAAHAYPREMEFVDHLPKTPSGKLQRFILRNQEIAKQQALG
B9: enzyme C424A (Methanosarcina mazei, UniProt Q8PVB1); chain MSEQRSVPLREHLLALKPCRHGGLIQETSETYGIPENEILDFSANFNPLGSPFDYPENGLNFEDIIKKSCGKLLEYPDNRYVEFREAAARFVGLGVTPQSIVPGNGSTEIVRLVVESVIEKGDKVLLPWPTFGEYEMQCRITGAEPVCPSQEEVNTLPDEVLEEAKILFICNPNNPTGKLRTREELKVLAERCREHKTLLYVDEAFIELSDPSQSVADLPAENNYVFVMRSLTKDFAIPGIRMGFGIAPPAMADILNTARLSWNLGAIANNTGIALLNIEGGIDSPYLKKAREMILKEGETLKAKIDRIRGFEAGEVNVNFILVDVSKFMLNSSELTARLAARGVLVRDCVSFHGLGKNYIRVAVRTEKENDRLIAAIGDVITEWGREQAKNELQHVIEKASEEGIGGRKTCEYYPCHFEGQNATFCFCPFYPCENEKTGGKWIQSSRGGRVWSCVDCHLVHKKEIAQKILDCLMHEGDTDELVKVAWKEVMEPIL

B1 (enzyme)  kcat (C/C(=C\C=C(/O)C(=O)O)C(=O)O; pH 7.3, 24 °C): 3.4 ± 0.1 s⁻¹
B2 (enzyme S252E)  kcat (NC(=O)C1=CN([C@@H]2O[C@H](COP(=O)(O)OP(=O)(O)OC[C@H]3O[C@@H](n4cnc5c(N)ncnc54)[C@H](OP(=O)(O)O)[C@@H]3O)[C@@H](O)[C@H]2O)C=CC1; pH 7, 30 °C, apparent): 46 ± 2 s⁻¹
enzyme (Lacticaseibacillus rhamnosus, UniProt A0A7S7JIA0)  kcat (C[C@@H]1O[C@@H](Oc2ccc([N+](=O)[O-])cc2)[C@@H](O)[C@H](O)[C@@H]1O; pH 5, 40 °C): 19.4 s⁻¹
B3 (enzyme Y27L)  kcat (OC[C@H]1O[C@H](O[C@H]2O[C@H](CO)[C@@H](O)[C@H](O)[C@H]2O)[C@H](O)[C@@H](O)[C@@H]1O; pH 3.7, 30 °C): 2.6 ± 0.04 s⁻¹
B4 (enzyme H130Y)  kcat (C[S+](CC[C@H](N)C(=O)O)C[C@H]1O[C@@H](n2cnc3c(N)ncnc32)[C@H](O)[C@@H]1O; pH 7.9, 37 °C, apparent, together with: 1-200 µM SAM): 0.000667 ± 0.000133 s⁻¹
enzyme (UniProt A0A063Y6V3)  kcat (NC(=O)C1=CN([C@@H]2O[C@H](COP(=O)(O)OP(=O)(O)OC[C@H]3O[C@@H](n4cnc5c(N)ncnc54)[C@H](O)[C@@H]3O)[C@@H](O)[C@H]2O)C=CC1; pH 7, 30 °C, cofactor varied): 0.31 ± 0.021 s⁻¹
spt R378K (Sphingomonas paucimobilis)  kcat (CCCCCCCCCCCCCC(=O)SCCNC(=O)CCNC(=O)[C@H](O)C(C)(C)COP(=O)(O)OP(=O)(O)OC[C@H]1O[C@@H](n2cnc3c(N)ncnc32)[C@H](O)[C@@H]1OP(=O)(O)O; together with: PLP): 0.19 ± 0.01 s⁻¹
enzyme (Cyanidioschyzon merolae, UniProt M1V8C6)  kcat (O=C(O)[C@H](O)CO; pH 7.8, 30 °C): 19.4 ± 0.86 s⁻¹
enzyme (Chlamydomonas reinhardtii, UniProt A0A2K3D977)  kcat (NC(=O)C1=CN([C@@H]2O[C@H](COP(=O)(O)OP(=O)(O)OC[C@H]3O[C@@H](n4cnc5c(N)ncnc54)[C@H](O)[C@@H]3O)[C@@H](O)[C@H]2O)C=CC1; pH 7.5, together with: DHAP 5 mM): 147 ± 10 s⁻¹
B5 (enzyme C33S)  kcat (O=[N+]([O-])c1ccc(OP(=O)(O)O)cc1; pH 7, 37 °C, together with: Ni2+ 0.25 mM): 0.07 ± 0.005 s⁻¹
B6 (LYS1 C205S/K77M)  kcat (NCCCC[C@H](N)C(=O)O; pH 7, 25 °C, together with: NADH 0.5 mM): 0.73 ± 0.02 s⁻¹
B7 (enzyme)  kcat (C=C(OP(=O)(O)O)C(=O)O; pH 6.5, 25 °C, together with: 2 mM ADP): 22.7 ± 0.9 s⁻¹
enzyme (Lactiplantibacillus plantarum, UniProt Q06115)  kcat (C[C@H](CCC(=O)N[C@@H](Cc1ccc(O)cc1)C(=O)O)[C@H]1CC[C@H]2[C@@H]3[C@H](O)C[C@@H]4C[C@H](O)CC[C@]4(C)[C@H]3C[C@H](O)[C@]12C; pH 6.2, 37 °C): 25.8 ± 1.57 s⁻¹
acs (Salmonella enterica, UniProt Q8ZKF6)  kcat (CCC(=O)O; pH 7, 30 °C, apparent): 3.7 s⁻¹
efeB (Bacillus subtilis, UniProt P39597)  kcat (CN(C)c1ccc(C(=C2C=CC(=[N+](C)C)C=C2)c2ccccc2)cc1; pH 4, 25 °C, apparent): 1.6 ± 0.2 s⁻¹
B8 (acsA)  kcat (CC(=O)O; pH 7): 0.2 ± 0.00667 s⁻¹
B9 (enzyme C424A)  kcat (Nc1ncnc2c1ncn2[C@@H]1O[C@H](COP(=O)(O)OP(=O)(O)OP(=O)(O)O)[C@@H](O)[C@H]1O; pH 8.5, 25 °C, apparent, anoxic, together with: L-Thr 10 mM): 0.003 ± 0.002 s⁻¹
PYCR2 (Homo sapiens, UniProt Q96C36)  kcat (NC(=O)C1=CN([C@@H]2O[C@H](COP(=O)(O)OP(=O)(O)OC[C@H]3O[C@@H](n4cnc5c(N)ncnc54)[C@H](OP(=O)(O)O)[C@@H]3O)[C@@H](O)[C@H]2O)C=CC1; pH 7.5, 37 °C, apparent, cofactor varied, together with: DL-P5C 5000 µM): 24 ± 0.7 s⁻¹
enzyme K123A (Homo sapiens, UniProt Q08623)  kcat (O=c1[nH]cc([C@@H]2O[C@H](COP(=O)(O)O)[C@@H](O)[C@H]2O)c(=O)[nH]1; pH 7, 25 °C): 0.128 s⁻¹
enzyme (Bacteroides fragilis, UniProt Q5LAD6)  kcat (C[C@@H]1O[C@@H](Oc2ccc([N+](=O)[O-])cc2)[C@@H](O)[C@H](O)[C@@H]1O; pH 7, 37 °C): 1.07 ± 0.0355 s⁻¹

For quick reference, copied from above:
B1 (enzyme)  kcat (C/C(=C\C=C(/O)C(=O)O)C(=O)O; pH 7.3, 24 °C): 3.4 ± 0.1 s⁻¹
B2 (enzyme S252E)  kcat (NC(=O)C1=CN([C@@H]2O[C@H](COP(=O)(O)OP(=O)(O)OC[C@H]3O[C@@H](n4cnc5c(N)ncnc54)[C@H](OP(=O)(O)O)[C@@H]3O)[C@@H](O)[C@H]2O)C=CC1; pH 7, 30 °C, apparent): 46 ± 2 s⁻¹
enzyme (Lacticaseibacillus rhamnosus, UniProt A0A7S7JIA0)  kcat (C[C@@H]1O[C@@H](Oc2ccc([N+](=O)[O-])cc2)[C@@H](O)[C@H](O)[C@@H]1O; pH 5, 40 °C): 19.4 s⁻¹
